Measurements collected from several papers.
Parts stem from different laboratories: compare values within a part only. Positions count from the first letter of the parent shown.

Set 1
Target: Histone acetyltransferase KAT6A, winged helix 2, GST fusion (KAT6A, Homo sapiens, UniProt Q92794, residues 85-181)
Method: protein binding microarray
Form: double-stranded DNA, one strand shown
Sample: in vitro
Concentration: not given
Notes: 8-mer, flanks averaged, mean of 2 arrays, mostly near background
Reference: not given
Reading: higher = stronger binding
Construct (chain): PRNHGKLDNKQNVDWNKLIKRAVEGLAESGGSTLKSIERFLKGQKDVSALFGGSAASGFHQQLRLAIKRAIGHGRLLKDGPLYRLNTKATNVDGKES
The E-score of `CAGTATTA` is reported as 0.0506.
For `CCGGAGTA`, the E-score was 0.0735.
`ACATTAGG` has an E-score of -0.243.
`AGGGAATC` has an E-score of -0.053.
With `AATCGAAG` the E-score was 0.165.
With `TAAACTGA` the E-score was -0.00615.
`ATCAGCCC` gave an E-score of -0.0703.
With `ACACGAAT` the E-score was 0.0934.
`CGGTTGAG` has an E-score of 0.195.
The E-score of `CTCGTCTA` is reported as -0.0862.
The E-score of `ACCGAACT` is reported as 0.157.
`CACGTTGC` has an E-score of -0.0882.
The E-score of `GATACATA` is reported as -0.0402.
With `ATGGTGAC` the E-score was -0.112.
With `TGGTATAA` the E-score was -0.0698.
`AAACCCCT` gave an E-score of -0.028.
For `CTCAGAAA`, the E-score was 0.14.
`TCATTGAA` has an E-score of 0.0227.
The E-score of `AAAGGGAC` is reported as 0.0519.
`GCTACGGA` has an E-score of -0.0707.

Set 2
Target: FOS, bZIP domain (human)
Method: DHFR protein complementation
Sample: yeast
Notes: single substitutions, most at no-binding floor
Reference: wild-type JUN-FOS pair
Reading: higher = stronger binding
Starting sequence: JUN, bZIP domain (human); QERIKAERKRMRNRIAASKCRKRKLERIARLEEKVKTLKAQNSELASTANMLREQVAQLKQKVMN; partner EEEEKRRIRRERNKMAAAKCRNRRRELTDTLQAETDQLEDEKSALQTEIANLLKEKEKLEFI
For `M51K`, the binding fitness was 0.0346 natural log.
`L59Q` has a binding fitness of -1.33 natural log.
For `E33F`, the binding fitness was -0.267 natural log.
For `L59G`, the binding fitness was -1.19 natural log.
`V35S` gave a binding fitness of -0.467 natural log.
`M51N` gave a binding fitness of -0.0369 natural log.
For `K39F`, the binding fitness was -1.27 natural log.
The binding fitness of `M51C` is reported as -0.121 natural log.
With `T37D` the binding fitness was -0.0257 natural log.
`V35N` gave a binding fitness of -0.136 natural log.
For `N42R`, the binding fitness was -0.272 natural log.
`E32K` gave a binding fitness of -0.0302 natural log.
`T37P` gave a binding fitness of -1.14 natural log.
For `K39G`, the binding fitness was -0.865 natural log.
For `Q41G`, the binding fitness was -0.161 natural log.
With `Q55H` the binding fitness was -0.106 natural log.
`L45W` has a binding fitness of -1.3 natural log.
`L45V` gave a binding fitness of -1.32 natural log.
The binding fitness of `V56W` is reported as -1.34 natural log.

Set 3
Target: RING finger protein unkempt homolog, zinc fingers 1-6, SBP tag (UNK, Homo sapiens, UniProt Q9C0B0, residues 30-357)
Chain of UniProt Q9C0B0 (30-357, looked up): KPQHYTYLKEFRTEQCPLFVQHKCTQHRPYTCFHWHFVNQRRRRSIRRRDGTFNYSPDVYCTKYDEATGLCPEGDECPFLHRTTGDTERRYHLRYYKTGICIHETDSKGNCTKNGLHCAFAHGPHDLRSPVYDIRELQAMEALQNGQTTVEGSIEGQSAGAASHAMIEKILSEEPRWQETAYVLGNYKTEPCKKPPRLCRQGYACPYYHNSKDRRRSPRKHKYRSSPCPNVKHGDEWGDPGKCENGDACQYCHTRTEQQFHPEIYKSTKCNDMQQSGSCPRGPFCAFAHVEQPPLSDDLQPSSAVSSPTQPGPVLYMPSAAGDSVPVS
Method: RNA Bind-n-Seq
Form: RNA
Sample: in vitro
Concentration: 100 nM
Notes: RNA with constant flanks, vertebrate orthologous sites, ends assumed
Reference: input RNA pool
Reading: higher = stronger binding
Constant ends, left off below: GGGAGUUCUACAGUCCGACGAUC … CAACAGAGGAUUGAGCAUCA
For `UUGGGACUAGCUCUCCAAAUAGAAACAGUAGUAAAAAAAAUAAGCAAAAUGAUAUUUGUAUAGAAAAAACAGAAGUUAAAUCAUGCAAGGUAAAUGCUGCCAGUGUUCCAGGCUCUAAAG`, the bound/input enrichment was 3.29 ratio.
`AUCAUAGCAGAAGAGCCAAGCAGUAGCAUUGGUGGUUUUUUUCUUUUGUAAAUGUAAAAUUAGAUCCAGACUUUGUUUCCUUAUUCAAUUUUAAAAAUAAAAAAAAUACCUCAGUGCUAU` has a bound/input enrichment of 0.431 ratio.
With `CCGAAAGGCCAAAUUCCCUCCUCCCUUCUACUGCUUCUACCAACUGGAAGCACAGAAAACUAGAAUUACAUUUAUUUUGUUUUUUAAAAAAUAUACGUUGAUUUCUUGUAACAUUCAGUA` the bound/input enrichment was 0.859 ratio.
`AAUAUUGGAUGCAGUGUAAAAUUAUCCAAGGCAGUGACUUCAGCUUUAUAUAUAUAAAAUAUAGUUUUAAAGUUAUUGACAUUUAUUUAAACUUUUAGAUUGGAUUGUUUGCUAUUGCUC` gave a bound/input enrichment of 0.667 ratio.
For `UGUACAAUAAUGAAAACCUACAGGAAUUUUUUUAUUUUUCAUUUUCCCUUUAGGCAUAUUUAGUGAUAUUUUCCCCAGGCAGAUCAUUCUGAGUGUGCGAGUGUGUGUGCACAUGUUACA`, the bound/input enrichment was 1.14 ratio.
For `CCGCUGAUUCGCUCAUUGGGAGAGCAGCACAUAUAGCUGUUCUUGAUUCAGAAAUAUUUUUAGAGAAAUUCUUUCUGGUUGCUGCCCUAAAAUAUUUCCAGUAGAAUAAAAGCAUUGUUA`, the bound/input enrichment was 0.59 ratio.
`UUUUAUUGAUCAGGUCUGUAAAUGUAUGCUAAGAAAAUCAGAGUUUAUUUAUGAACAGAAUAGUAUAUUUAAAAAAAAAGUUUUUCUUCAUUAAUGUAGUGGUAUGCAUUCAGUAAACUC` gave a bound/input enrichment of 0.522 ratio.
The bound/input enrichment of `CAUUAACACACAAAAUGUCUCCAGGGGGGUAUUAGAUUUGAUUUCUUACAUAUAAAAAAAACCAACCAACCAUUUUUAAAGUAGAAGAGGGUUUUAGAUAGUAAAUGAAAUAUUCUUUUU` is reported as 1.28 ratio.

Set 4
Target: Hepatocyte nuclear factor 3-alpha (Foxa1, Mus musculus, UniProt P35582, residues 1-468, full length assumed)
Method: EMSA with sequencing
Form: double-stranded DNA, one strand shown
Sample: in vitro
Concentration: 10 and 20 nM
Notes: whole designed probe, mean of two concentrations, ends assumed
Reference: negative control set to 0
Reading: higher = stronger binding
Constant ends, left off below: GTGAGCGGTGCCCATTGATGGGGAAC … TTTCACTGGGATCGTGGGGAC
Residues (chain): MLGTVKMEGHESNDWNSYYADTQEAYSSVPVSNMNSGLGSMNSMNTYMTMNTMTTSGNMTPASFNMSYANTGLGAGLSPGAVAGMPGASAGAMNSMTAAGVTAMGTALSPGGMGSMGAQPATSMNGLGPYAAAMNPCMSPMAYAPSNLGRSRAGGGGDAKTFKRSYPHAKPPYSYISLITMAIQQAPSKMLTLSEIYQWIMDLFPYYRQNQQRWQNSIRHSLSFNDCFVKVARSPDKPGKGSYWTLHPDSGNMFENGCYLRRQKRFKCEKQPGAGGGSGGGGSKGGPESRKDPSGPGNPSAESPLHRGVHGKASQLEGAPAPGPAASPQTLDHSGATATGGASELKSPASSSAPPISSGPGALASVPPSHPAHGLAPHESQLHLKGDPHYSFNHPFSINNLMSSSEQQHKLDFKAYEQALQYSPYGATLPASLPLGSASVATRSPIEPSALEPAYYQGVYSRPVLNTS
`ATCTTCCCCCTCTTCCTTGCCCCACCAGCTCACCTACGGGGGTTATTTGCAGATAGGAAAATAAATAAAGCCGGCATTCGTTAACGCAGTTCTGGCGCAAACTGCTGTTTGCTCTGCATGAATCATGGTCCTTACGCGACGCCAGGCTCCGGGAGAGCAAAGCACCGTGTCAGGCGCATGATCCGGGGTGGCC`: “normalised bound fraction” 0.354 ratio.
Under “normalised bound fraction”, `GCTCTGGGCAGTCACCCAGGTACCACAAAATCCCTATGGGTGTGCATCTCCTTTGTTACCCATGTGTATACTCCCTCCCTGAGCTCAAAGCCATGTTTGCTCAGCTTGATGAAAATGTGTTTCTTGAAAGCCACATTCTTTTCCTTTTCTGAGCCAGTGAGGTTTCTGCAGAGCTCATGGTGCTGATGTTTCC` is recorded as 0.166 ratio.
`CCCACCTAGCATAAAATCAAGTAAAGGAGATAACAAATACACCTAAATAAATAATCAAAAATTCTAGAGTGGCTTGAAATCTACATACTACTAAGTAAATATGGAGATGCTGAGAGTAGAACAATATTTATATATGATCAGAGGAATAAAGGAAGTGTCACAGAAAAAATAATATTCCAACTGAGCCATATGA`: “normalised bound fraction” 0.532 ratio.
`GCTTTAAATATCAAGCCTAAGCTAATGTAAGCAAAGGATATTGTTAGTAGTAGCAAATTAGTATTAGTAGTAGCAAATTAATTAATTCAGTGATGTTTACTAAATATCCTCAATTATGTTATTTGTTAATTTGAAGTTTCTGTAAGAAAGAGAATACATGAACTTGAATTTCACAAATACCTGTGAATTGCAC` — result for “normalised bound fraction”: 0.201 ratio.
`TTTAGCTGTTTGAATATAATATGTTTACGTTTACTCCTCTTCTTCCTCCTGCCTCCCTTTCTCTTCCTTCTTTCTCTTATTTTTCTTCTATCCTGTTTGCTCTTCTTAGGTTAATGAATGTAGTTTGGTGTCATTATTTTTAAAAACTCTGAGCAACCATCCTTACAAATACTGTTTCTGCCCTGTTCTCTCC`: “normalised bound fraction” 0.16 ratio.
